Measured values pooled from the literature.
Compare with care: the assays were run in different laboratories. ± marks the error that the study gave.
Cell line: MCF7

| Substance | assay | conditions | scale | endpoint | result |
| --- | --- | --- | --- | --- | --- |
| NCCC(=O)Nc1ccccc1/N=c1\cc(-c2ccc3nc(N)oc3c2)oc2ccc(F)cc12 | cell growth or viability, CCK-8 | 1 µM | – | inhibition | > 70% |
| C/C(=N\N=C1/NC(=O)/C(=C\c2ccc(Cl)cc2)S1)c1ccccn1 | cell growth, SRB | 100 µg/mL, 48 h | – | inhibition | > 70% |
| Cc1c(C)c2c(c(C)c1O)CCC(C)(C(=O)NN=C1C(=O)Nc3ccc(Br)cc31)O2 (centres unmarked) | cell growth or viability, SRB | 48 h | – | GI50 | 57.3 µM |
| CN(C)C(=O)c1cc2cnc(Nc3ccc(N4CCNCC4)cn3)nc2n1C1CCCC1 | item: phospho-pRb | up to 3.16 µM | – | time to cell cycle re-entry | ≤ 48 h |
| insulin icodec | DNA synthesis, agonist, 3H-thymidine incorporation | HSA 0% | – | EC50 | 0.625 µM |
| CCOC(=O)c1ccc(NC(=O)C2(OC(=O)c3ccc(NS(=O)(=O)c4ccccc4)cc3)CCCCC2)cc1 | Annexin V/PI flow cytometry | IC50 concentration, 72 h | – | apoptotic cells | 58.3% |
| C#C[C@@]1(O)[C@@H](CO)O[C@@H](n2cc(Cl)c3c(N)ncnc32)[C@@H]1O | cell growth or viability, SRB | 48 h | – | GI50 | 0.027 µM |
| CCN1C(=O)/C(=C\c2ccc(Cl)cc2)S/C1=N/N=C(\C)c1ccccn1 | cell growth or viability, SRB | 100 µg/mL, 48 h | – | inhibition | 59.5% |
| COc1c(C)c(C)c2c(c1C)CCC(C)(C(=O)NN=C1C(=O)Nc3cc(Cl)ccc31)O2 (centres unmarked) | cell growth or viability, SRB | 48 h | – | GI50 | 38.2 µM |
| CCN1C(=O)CS/C1=N/N=C(\C)c1ccccn1 | cell growth or viability, SRB | 100 µg/mL, 48 h | – | inhibition | 64% |
| COc1cc(-c2noc(-c3cccs3)c2C(F)(F)F)cc(OC)c1OC | PI flow cytometry | IC50, 48 h | – | cells in S-phase | 1.5% |
| NS(=O)(=O)c1ccc(NC(=O)CNNc2nc3ccccc3c(=O)n2-c2ccccc2)cc1 | annexin V/PI staining | 2.5 µM, 24 h, Total apoptosis | – | apoptotic cells | 19.3% |
| O=C(CC1Sc2ccccc2NC1=O)c1ccc(Cl)cc1 (centres unmarked) | propidium iodide flow cytometry | 1.29 µM, 24 h | – | G0/G1 phase cells | 76.2% |
| C/C(=N\NC(N)=S)c1ccccn1 | cell growth or viability, SRB | 100 µg/mL, 48 h | – | inhibition | 66.2% |
| Cc1c(C)c2c(c(C)c1OCc1ccccc1)CCC(C)(C(=O)NN=C1C(=O)Nc3ccc(Cl)cc31)O2 (centres unmarked) | cell growth or viability, SRB | 48 h | – | GI50 | > 100 µM |
| CCn1c(-c2ccccc2)cs/c1=N/N=C(\C)c1ccccn1 | cell growth or viability, SRB | 100 µg/mL, 48 h | – | inhibition | 53.7% |
| CS(=O)(=O)N1CCN(Cc2cc3nc(-c4cccc5[nH]ncc45)nc(N4CCOCC4)c3s2)CC1 | sulforhodamine B | 1 to 2 µM, 3-6 h exposure, washout, read 120 h | – | viability decrease | ≥ 50% |
| O=C(CNc1ccc([N+](=O)[O-])cc1)Nc1nc2ccccc2s1 | cell growth or viability, MTT | 100 µM, 72 h | – | inhibition | 32% |
| COc1c(C)c(C)c2c(c1C)CCC(C)(C(=O)NN=C1C(=O)Nc3ccc(F)cc31)O2 (centres unmarked) | cell growth or viability, SRB | 48 h | – | GI50 | > 100 µM |
| CCCCCCCCCCCCCCCC(=O)N[C@@H](Cc1c[nH]cn1)C(=O)N[C@@H](CCCNC(=N)N)C(=O)N[C@@H](CCCCN)C(=O)N[C@@H](CCCNC(=N)N)C(=O)N[C@@H](CC(N)=O)C(=O)N[C@@H](CC(N)=O)C(=O)N[C@@H](CO)C(=O)N[C@@H](CCCNC(=N)N)C(=O)N[C@@H](CC(C)C)C(=O)NCC(=O)N[C@@H](CC(N)=O)C(=O)NCC(=O)N[C@H](C(=O)N[C@@H](CC(C)C)C(=O)N[C@@H](Cc1ccc(O)cc1)C(=O)N[C@@H](C)C(=O)N[C@@H](CO)C(N)=O)C(C)C | – | 48 h, 1% FBS | – | TGI | 4.1 ± 0.3 µM |
| CC(=NNC(=S)NN=C(C(=NO)c1ccccc1)c1ccccc1)c1ccccc1C | Western blot, item: NF-κB p65 | IC50 concentration, 24 h | baseline: untreated | relative protein level | 0.72 ± 0.05 |
| O=C(CN1CCN(c2ccccc2O)CC1)Nc1nc2ccccc2s1 | cell growth or viability, MTT | 100 µM, 72 h | – | inhibition | 54.1% |

| Substance | assay | conditions | scale | endpoint | result |
| --- | --- | --- | --- | --- | --- |
| Cc1c(C)c2c(c(C)c1OCc1ccccc1)CCC(C)(C(=O)NN=C1C(=O)N(C)c3ccc(Cl)cc31)O2 (centres unmarked) | cell growth or viability, SRB | 48 h | – | GI50 | 77.9 µM |
| COC(=O)c1ccc(NC(=O)CNNc2nc3ccccc3c(=O)n2-c2ccccc2)cc1 | annexin V/PI staining | 2.5 µM, 24 h, Total apoptosis | – | apoptotic cells | 26.6% |
| C#C[C@@]1(O)[C@@H](CO)O[C@@H](n2cc(I)c3c(N)ncnc32)[C@@H]1O | cell growth or viability, SRB | 48 h | – | GI50 | 0.01 to 0.014 µM |
| Cc1c(C)c2c(c(C)c1O)CCC(C)(C(=O)NN=C1C(=O)Nc3ccc(Cl)cc31)O2 (centres unmarked) | cell growth or viability, SRB | 48 h | – | GI50 | 76.4 µM |
| CCCCCCCCCCCCCCCC(=O)N[C@@H](CCCNC(=N)N)C(=O)N[C@@H](CCC(N)=O)C(=O)N1CCC[C@H]1C(=O)N[C@@H](CC(=O)O)C(=O)NCC(=O)N1CCC[C@H]1C(=O)N[C@@H](CC(C)C)C(=O)NCC(=O)N1CCC[C@H]1C(=O)N[C@@H](CC(C)C)C(=O)N[C@@H](Cc1ccc(O)cc1)C(N)=O | – | 48 h, 1% FBS | – | TGI | 0.4 ± 0.05 µM |
| COc1ccc(/C=C2/S/C(=N/N=C(\C)c3ccccn3)NC2=O)cc1 | cell growth or viability, SRB | 100 µg/mL, 48 h | – | inhibition | 51.5% |
| CCCCCCCCCCCCCCCC(=O)N[C@@H](CCCCN)C(=O)N[C@@H](CCCNC(=N)N)C(=O)N[C@@H](CC(N)=O)C(=O)N[C@@H](CC(N)=O)C(=O)N[C@@H](CO)C(=O)N[C@@H](CCCNC(=N)N)C(=O)N[C@@H](CC(C)C)C(=O)NCC(=O)N[C@@H](CC(N)=O)C(=O)NCC(=O)N[C@H](C(=O)N[C@@H](CC(C)C)C(=O)N[C@@H](Cc1ccc(O)cc1)C(=O)N[C@@H](C)C(=O)N[C@@H](CO)C(=O)N[C@H](C(=O)N[C@@H](CC(N)=O)C(N)=O)C(C)C)C(C)C | – | 48 h, 1% FBS | – | TGI | 0.5 ± 0.08 µM |
| Cc1c(C)c2c(c(C)c1O)CCC(C)(C(=O)NN=C1C(=O)N(C)c3cc(Cl)ccc31)O2 (centres unmarked) | cell growth or viability, SRB | 48 h | – | GI50 | > 100 µM |
| CC(C)(C)c1ccc(CN2CCN(C(c3ccccc3)c3ccc(Cl)cc3)CC2)cc1 (centres unmarked) | lipid droplet formation, Nile Red staining | 72 h | – | EC50 | 19 µM |
| O=C(CNc1ccc(I)cc1)Nc1nc2ccccc2s1 | cell growth or viability, MTT | 100 µM, 72 h | – | inhibition | 30.8% |
| Cc1c(C)c2c(c(C)c1O)CCC(C)(C(=O)NN=C1C(=O)N(C)c3ccccc31)O2 (centres unmarked) | cell growth or viability, SRB | 48 h | – | GI50 | > 100 µM |
| O=C(CNc1ccc(S(=O)(=O)Nc2ccccn2)cc1)Nc1nc2ccccc2s1 | cell growth or viability, MTT | 100 µM, 72 h | – | inhibition | 15.1% |
| C/C(=N\N=c1/[nH]c(C)c(/N=N/c2ccc(C)cc2)s1)c1ccccn1 | cell growth or viability, SRB | 100 µg/mL, 48 h | – | inhibition | 67.6% |
| O=C(CNC1CCCCC1)Nc1nc2ccccc2s1 | cell growth or viability, MTT | 100 µM, 72 h | – | inhibition | 34.4% |
| CCCCCCCCCCCCCCCC(=O)N[C@@H](CCCNC(=N)N)C(=O)N[C@@H](CC(N)=O)C(=O)N[C@@H](CC(N)=O)C(=O)N[C@@H](CO)C(=O)N[C@@H](CCCNC(=N)N)C(=O)N[C@@H](CC(C)C)C(=O)NCC(=O)N[C@@H](CC(N)=O)C(=O)NCC(=O)N[C@H](C(=O)N[C@@H](CC(C)C)C(=O)N[C@@H](Cc1ccc(O)cc1)C(N)=O)C(C)C | – | 48 h, 1% FBS | – | TGI | 0.5 ± 0.02 µM |
| insulin human | glycogen synthesis, agonist, [14C]glucose incorporation | 0% HSA | – | EC50 | 0.0122 µM |
| CCCCCCCCCCCCCCCC(=O)N[C@@H](CCCNC(=N)N)C(=O)N[C@@H](CCCCN)C(=O)N[C@@H](CCCNC(=N)N)C(=O)N[C@@H](CC(N)=O)C(=O)N[C@@H](CC(N)=O)C(=O)N[C@@H](CO)C(=O)N[C@@H](CCCNC(=N)N)C(=O)N[C@@H](CC(C)C)C(=O)NCC(=O)N[C@@H](CC(N)=O)C(=O)NCC(=O)N[C@H](C(=O)N[C@@H](CC(C)C)C(=O)N[C@@H](Cc1ccc(O)cc1)C(=O)N[C@@H](C)C(=O)N[C@@H](CO)C(=O)N[C@H](C(=O)N[C@@H](CC(N)=O)C(N)=O)C(C)C)C(C)C | – | 48 h, 1% FBS | – | TGI | 2.7 ± 0.3 µM |
| O=C(CN1CCN(c2ccc([N+](=O)[O-])cc2)CC1)Nc1nc2ccccc2s1 | cell growth or viability, MTT | 100 µM, 72 h | – | inhibition | 35% |
| CC(=O)c1s/c(=N/N=C(\C)c2ccccn2)[nH]c1C | cell growth or viability, SRB | 100 µg/mL, 48 h | – | inhibition | 63.3% |
| C[C@H]1c2cccc(O)c2C(=O)C2=C(O)[C@]3(O)C(=O)C(C(N)=O)=C(O)[C@@H](N(C)C)[C@@H]3[C@@H](O)[C@@H]21 | caspase-3/7 flow cytometry, item: early plus late apoptosis | IC50, 24 h | – | apoptotic cells | 97.4% |
| CCCCCCCCCCCCCCCC(=O)N[C@H](C(=O)N[C@@H](Cc1ccccc1)C(=O)N[C@@H](Cc1c[nH]cn1)C(=O)N[C@@H](CCCNC(=N)N)C(=O)N[C@@H](CCCCN)C(=O)N[C@@H](CCCNC(=N)N)C(=O)N[C@@H](CC(N)=O)C(=O)N[C@@H](CC(N)=O)C(=O)N[C@@H](CO)C(=O)N[C@@H](CCCNC(=N)N)C(=O)N[C@@H](CC(C)C)C(=O)NCC(=O)N[C@@H](CC(N)=O)C(=O)NCC(=O)N[C@H](C(=O)N[C@@H](CC(C)C)C(=O)N[C@@H](Cc1ccc(O)cc1)C(=O)N[C@@H](C)C(=O)N[C@@H](CO)C(=O)N[C@H](C(=O)N[C@@H](CC(N)=O)C(N)=O)C(C)C)C(C)C)C(C)C | – | 48 h, 1% FBS | – | TGI | 1.1 ± 0.1 µM |
| O=C(CN1CCN(CC(=O)Nc2nc3ccccc3s2)CC1)Nc1ccc([N+](=O)[O-])cc1 | cell growth or viability, MTT | 100 µM, 72 h | – | inhibition | 85% |
